# Measurements collected from several papers.
# A part holds a random share of what one study measured. Changes are numbered by the printed parent chain.

# Block 1 — technique: RNA Bind-n-Seq; molecule type: RNA; sample: in vitro; concentration: 200 nM; setting: whole 134-nt RNA, ends assumed; added: 150 mM LiCl; relative to: input library; direction: higher = stronger binding; each molecule: 7-deaza-guanosine replaces G
# Target: Fragile X messenger ribonucleoprotein 1, C-terminal low-complexity region (Fmr1, Mus musculus, UniProt P35922)
# Constant ends, left off below: GGGAGUUCUACAGUCCGACGAUC … UGGAAUUCUCGGGUGUCAAGG
Oligonucleotide,log2 enrichment
UCAAGUCCUGUGCUACACAUCGUAUGUACCGAAUCGGUUUUUGGAAAGGUUUGGAAAGUAUUAUGUUACGCCGUUCGGAUCUGCACUUCC,-2.12
CCUGUGCUACACAUCGUAUGUACCGAAUCGGGGCCCCCCGGCCCCCCGGGGCCCCCCGGGAAAGUAUUAUGUUACGCCGUUCGGAUCUGC,-1.55
ACCAUGCAGGUGGGCAUCUUUGGGAAGUGGGGCAAGGGGGGGAUAGGGAGGGGGUUAACACUUUGGGAACAGGUGGUCCCAGGUCGUUUC,1.46
UGUGCUACACAUCGUAUGUACCGAAUCGGGGUUUUUUUGGGGUUUUUUUGGGGAAAAAGGGGAAAGUAUUAUGUUACGCCGUUCGGAUCU,0.172
GCAGGAAGUAAAAACAAAUGGAAAUGCAUCGGAUAGUGGCAGGGGUGGGGGUUGCUAAGGAAAGGGUGGGAUGGGAGUGGGUAAAGAGUU,1.8
CACAGACAACACGCACCCACACAGACACAGAGGGAAGGGGUUGGGAUGGGGACAGGGUGUACAGCAGGGCGGGGUAGGACCCCAGCCCCU,0.284
CUCAAGUCCUGUGCUACACAUCGUAUGUACCGAAUCGGGAGGGUUUGGGUGGGAAAGUAUUAUGUUACGCCGUUCGGAUCUGCACUUCCA,-0.359
CCUGUGCUACACAUCGUAUGUACCGAAUCGGGGAAAAAAAGGGGUUUUUGGGGAAAGGGGAAAGUAUUAUGUUACGCCGUUCGGAUCUGC,-0.541

# Block 2 — technique: protein-binding microarray; molecule type: double-stranded DNA, one strand shown; sample: in vitro; concentration: 0.8 µM; setting: whole 60-bp probe, no competitor; direction: higher = stronger binding; constant ends, left off below: … GTCTTGATTCGCTTGACGCTGCTG
# Target: Centromere-binding protein 1, full length, N-terminal tag (CBF1, Saccharomyces cerevisiae, UniProt P17106, residues 1-351)
# Chain of UniProt P17106 (whole entry, looked up): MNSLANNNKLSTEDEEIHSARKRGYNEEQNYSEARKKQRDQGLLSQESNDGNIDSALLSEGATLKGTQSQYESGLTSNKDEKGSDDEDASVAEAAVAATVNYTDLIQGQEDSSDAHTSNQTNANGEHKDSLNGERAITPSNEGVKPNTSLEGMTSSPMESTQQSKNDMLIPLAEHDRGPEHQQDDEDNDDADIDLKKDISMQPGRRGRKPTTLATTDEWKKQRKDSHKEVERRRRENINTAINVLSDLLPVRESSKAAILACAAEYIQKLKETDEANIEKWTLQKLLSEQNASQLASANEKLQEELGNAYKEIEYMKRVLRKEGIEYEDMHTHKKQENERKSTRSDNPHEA
Oligonucleotide,fluorescence intensity [a.u.]
GAATTGTATGTGAAGCACGTTGCTGCCCCCTTTTAG,788
GAATTCGACTTGGGTGGTGGTACTTTCGATGTCTAG,519
CTATGCGACGGTATCCACGTGCAGAACAACATATTC,2930
CTAATTCCACTCCATCACCCATCTCTCACCATCTTC,529
GAATTAGCTCATTCTGACGTCAACATCGAAACGTAG,489
GAACTACTTTCTTTCTACGTGACATAAACGAGGTAG,868
TGTACGAAGCTATGTGACTACACTATAGTAGTTAGG,530
CTAAGACTAACCCAAAGTGTGCGCAATAAACTCTTC,527
CCTAACTACTATAAACACATGAAATAGCTTCGTACA,519
GAAAGGCAATCGAAACACGTGGAAAAGTACTCTTAG,1850
CTAGCTTATATTTGTCACGTATACCTACTATTTTTC,777
GAAATTTTTTTCGGTGACATCAGTTGAAAGTAGTAG,569
CTACTGTAAAAACCTCTCACATGTTTTTCTCTGTTC,810
GAACGGAGACAATAGCACGAGTGGTAACAGGTCTAG,551
GAAAAATTAAAGAAGCACGTTTCCGTTTTTTATTAG,859
GAAATATAATTTGTCCACGTGATATTTCACAGATAG,10700
GAAAGGATTGTTTGTCAGGTGTCGCGGCCACAATAG,1070
GAAGTTAGCCTTAAGAACGTGTCCAAACCTCTTTAG,542
TGTACGAAGCTATGTGGTGCCTTTATAGTAGTTAGG,489

# Block 3 — target: JUN, bZIP domain (human); technique: DHFR protein complementation; sample: yeast; relative to: wild-type JUN-FOS pair; direction: higher = stronger binding
# Setting: single substitutions, most at no-binding floor
# Starting sequence: JUN, bZIP domain (human); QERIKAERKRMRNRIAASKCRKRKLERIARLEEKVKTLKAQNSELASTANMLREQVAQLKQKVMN
Variant,binding fitness [natural log]
V35S,-1.3
T48P,-1.38
Q55G,-1.34
N42D,-1.41
L52E,-1.41

# Block 4 — technique: protein binding microarray; molecule type: double-stranded DNA, one strand shown; sample: in vitro; concentration: not given; relative to: not given; direction: higher = stronger binding
# Target: Histone acetyltransferase KAT6A, winged helix 1, GST fusion (KAT6A, Homo sapiens, UniProt Q92794, residues 1-85)
# Setting: 8-mer, flanks averaged, mean of 2 arrays, mostly near background
# Residues (chain): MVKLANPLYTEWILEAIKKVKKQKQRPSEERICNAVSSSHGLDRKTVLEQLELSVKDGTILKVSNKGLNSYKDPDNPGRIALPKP
Oligonucleotide,E-score
ATGTTCTA,-0.0963
CACGATTC,-0.0174
AATTAGGA,-0.0862
CCAGGTCG,-0.0482
AGTAATCC,-0.118
TGGTGCAA,-0.203
AAAAGGCG,0.103
TCGCGAAA,0.141
GTTGTACA,0.00726
AGACACCC,-0.145
GGGTCGGA,0.163
AGTTCTCC,-0.0421
CCAATGAC,-0.26
AAGTCTGG,-0.35
GACTTCCC,-0.0659
CTCTCGGC,0.167
CAGTCTGC,-0.104
GAACCCGA,0.0963
GCGTTGGA,0.139
CAAGACGG,0.0532
AGCTCATA,-0.0406
TATCGCCA,-0.00687
ACGCCGAG,0.304
GAGAGAGC,-0.0485
TACTAAGA,0.011

# Block 5 — technique: RNA Bind-n-Seq; molecule type: RNA; sample: in vitro; concentration: 365 nM; relative to: no-protein control; direction: higher = stronger binding
# Target: RNA binding protein fox-1 homolog 2, RRM domain, GST-SBP tag (RBFOX2, Homo sapiens, UniProt O43251-10, residues 100-194)
# Setting: natural RNA segment, single round, ends assumed
# Constant ends, left off below: GGGAGUUCUACAGUCCGACGAUC … UGGAAUUCUCGGGUGCCAA
# Target sequence (chain): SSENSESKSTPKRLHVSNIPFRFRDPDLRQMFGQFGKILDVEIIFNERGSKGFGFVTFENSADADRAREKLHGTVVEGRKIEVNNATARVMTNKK
Oligonucleotide,RBNS enrichment (R)
CUGGUGAUGUCCCAGUGUCUCAGAACUGAUCACUUGCUCCUCCUAUUGUGUGAACCACUCUUAGCAGGCAUUGCUACUGGAUUCUUAACUAGAGAAAACUUACAGAACAG,0.377
UCAAAGCCCAGCUUAGUGAGGACUUGGGUCAACUUCAGUAAGCUUCCUCUGAAGCAACUGAAGGCCGAGCCUUUAGAGCAACCAUUGUCAACCUUUGUGGGUCGCCUAAG,0.242
AUUUUUCAUUCUAGGGACACUAAAAAAGAAAUCUGGGGAACAUCCGGGCUUUUGUAUAUUACCUGCUGAUCUUGUACACUUAAUCUGUUUACUGUUGUUCACAGAUGAAA,0.386
ACCUGGAGGACAGUGUGUGCCAUGUCUCCCAUACUAGAGAUAAAUAAAUGUAGCCACAUUUACUGUGUAUCUGUUAUAAUUCUCUAUUUUUUGAAGCUCAAAUAUCAAAA,0.514
UCAAGAAAUACUUUUCCAUGACCCAUGGAAGCUCCUCAUCGCGACUAUAUUUCUCAAUCGGACCUCAGGCAAGAUGGCCAUCCCUGUGCUGUGGGAGUUUCUAGAGAAGU,0.319
AAAGCCUCUCACUUGAACCCAAACCAGAGUACUCUUACUGCCUCUUUUCUAAAUGUUCAGGAAAAGCAUUGCCAGUUCAGUCUUUUCAAAAUGAGGGAGAAACAUUUGCC,0.347
GGGACGGUCCCCACCCCCAGGGACACAACCCCUGGUCUUGGACCAGUAGAGGACACGGAGGGUUCAGACCCCUCCUCAGACCCUCCCCACAUCUGAAACUGCCUCCCCCC,0.442
AGGUUGCCAAUCUGCUACAAUUAUUUUUCCCACCAAUCUGCUCAAAAUGAUUGUAUAUAGUAUUCUUAAAACCAUGUGUCUUGGUGCAGAAAUAUUGACAAAUGCUGGCC,0.496

# For quick reference, copied from above (block 1):
Oligonucleotide,log2 enrichment
UCAAGUCCUGUGCUACACAUCGUAUGUACCGAAUCGGUUUUUGGAAAGGUUUGGAAAGUAUUAUGUUACGCCGUUCGGAUCUGCACUUCC,-2.12
CCUGUGCUACACAUCGUAUGUACCGAAUCGGGGCCCCCCGGCCCCCCGGGGCCCCCCGGGAAAGUAUUAUGUUACGCCGUUCGGAUCUGC,-1.55
ACCAUGCAGGUGGGCAUCUUUGGGAAGUGGGGCAAGGGGGGGAUAGGGAGGGGGUUAACACUUUGGGAACAGGUGGUCCCAGGUCGUUUC,1.46
UGUGCUACACAUCGUAUGUACCGAAUCGGGGUUUUUUUGGGGUUUUUUUGGGGAAAAAGGGGAAAGUAUUAUGUUACGCCGUUCGGAUCU,0.172
GCAGGAAGUAAAAACAAAUGGAAAUGCAUCGGAUAGUGGCAGGGGUGGGGGUUGCUAAGGAAAGGGUGGGAUGGGAGUGGGUAAAGAGUU,1.8
CACAGACAACACGCACCCACACAGACACAGAGGGAAGGGGUUGGGAUGGGGACAGGGUGUACAGCAGGGCGGGGUAGGACCCCAGCCCCU,0.284
CUCAAGUCCUGUGCUACACAUCGUAUGUACCGAAUCGGGAGGGUUUGGGUGGGAAAGUAUUAUGUUACGCCGUUCGGAUCUGCACUUCCA,-0.359
CCUGUGCUACACAUCGUAUGUACCGAAUCGGGGAAAAAAAGGGGUUUUUGGGGAAAGGGGAAAGUAUUAUGUUACGCCGUUCGGAUCUGC,-0.541
